Assay results from different studies.
Compare with care: the assays were run in different laboratories. Several values in a cell are separate wells, animals, samples, runs or records. ± marks the error that the study gave. Converted amounts (≈) assume the structure as drawn.

CC(C)(C)NCC(SS(=O)(=O)O)c1ccccc1 (centres unmarked) — metabolic rate constant (glucuronidation; CD1 mouse, female, liver microsomes; 4 µM, pH 7.4, together with: UDPGA): 0.07 h⁻¹
CCCC[C@H](NC(=O)CNC(=O)CNC(=O)CN1CCN(CC(=O)O)CCN(CC(=O)O)CC1)C(=O)N[C@H]1CC(=O)NCCCC[C@@H](C(N)=O)NC(=O)[C@H](Cc2c[nH]c3ccccc23)NC(=O)[C@H](CCCNC(=N)N)NC(=O)[C@@H](Cc2ccccc2)NC(=O)[C@H](Cc2c[nH]cn2)NC1=O [gallium-67 labelled] — tumour to tissue ratio (female C57 mice, B16/F1 melanoma; intravenous, 0.037 MBq, 4 h; reference: tumour over lung): 60.2
Cc1ccccc1/N=N/c1ccc(/N=N/c2c(O)ccc3ccccc23)c(C)c1 — measured concentration (rat whole blood QC samples; 5.0 µg/L, 8 h, room temperature, short-term stability): 5.29 µg/L
CCCC[C@H](NC(=O)CN1CCC(NC(=O)CN2CCN(CC(=O)O)CCN(CC(=O)O)CCN(CC(=O)O)CC2)CC1)C(=O)N[C@H]1CC(=O)NCCCC[C@@H](C(N)=O)NC(=O)[C@H](Cc2c[nH]c3ccccc23)NC(=O)[C@H](CCCNC(=N)N)NC(=O)[C@@H](Cc2ccccc2)NC(=O)[C@H](Cc2c[nH]cn2)NC1=O [gallium-68 labelled] — uptake ratio (male C57BL/6J mice, B16-F10 tumours, tumour, bone; intravenous, 1 h, blocking study, together with: 100 µg non-radioactive Ga-peptide; reference: tumour over bone): 2.4 ± 1
O=C(Nc1nccs1)C(c1cc(F)ccc1O)N1Cc2ccccc2C1=O (centres unmarked) — recovery (methanol stock solution; 1.5 months, -30 °C): 93.4%
COC(=O)/C=C/C(=O)c1ccc(OC)cc1 — recovery (LC-MS/MS; rat plasma; 2.5 ng/mL, 15 days, -70 °C, long-term storage): 97.2 ± 8.44%
CCCCCCCC(=O)OC[C@H](NC(=O)[C@H](CO)NC(=O)CN)C(=O)N[C@@H](Cc1ccccc1)C(=O)N[C@@H](CC(C)C)C(=O)N[C@@H](CO)C(=O)N1CCC[C@H]1C(=O)N[C@@H](CCC(=O)O)C(=O)N[C@@H](Cc1cnc[nH]1)C(=O)N[C@@H](CCC(N)=O)C(=O)N[C@@H](CCCNC(=N)N)C(=O)N[C@H](C(=O)N[C@@H](CCC(N)=O)C(=O)N[C@@H](CCC(N)=O)C(=O)N[C@@H](CCCNC(=N)N)C(=O)N[C@@H](CCCCN)C(=O)N[C@@H](CCC(=O)O)C(=O)N[C@@H](CO)C(=O)N[C@@H](CCCCN)C(=O)N[C@@H](CCCCN)C(=O)N1CCC[C@H]1C(=O)N1CCC[C@H]1C(=O)N[C@@H](C)C(=O)N[C@@H](CCCCN)C(=O)N[C@@H](CC(C)C)C(=O)N[C@@H](CCC(N)=O)C(=O)N1CCC[C@H]1C(=O)N[C@@H](CCCNC(=N)N)C(=O)O)C(C)C — blood pressure mBP (beat-to-beat plethysmography; human chronic HFrEF patients; intravenous infusion, 0.1 µg/kg/min, 30 min after infusion end): 75.5 ± 12 mm Hg
CC(C)[C@H](NC(=O)CNC(=O)[C@H](CCC(N)=O)NC(=O)[C@H](C)N)C(=O)O — time to concentration below LOQ (human; 1 mg/kg single dose, LOQ 0.5 ng/mL): 15 min
C=CC(=O)Nc1cc(Nc2nccc(-c3cn(C)c4ccccc34)n2)c(OC)cc1N(C)CCNC — median trough concentration (UHPLC-MS/MS; human, NSCLC patients, plasma; oral, 80 mg daily, steady state, at least 14 d treatment): 18 ng/mL
Cc1ccc(C(=O)N[C@@H](CO)CC(C)C)cc1C — metabolite peak area (LC-MS; human liver microsomes; 10 µM of parent drug, 20 min, pH 7.4, together with: NADPH; reference: parent drug at time zero): 1%
Nc1ncnc(NCC2CCNCC2)c1-c1ccc(Oc2ccccc2)cc1 — metabolite excreted in faeces (male humans, faeces; oral, 75 mg, single metabolite; reference: dose): 1.58 to 2.4%
N=C(N)NCCC[C@@H]1NC(=O)[C@H](Cc2c[nH]c3ccccc23)NC(=O)[C@@H](CC2CCCCC2)NC(=O)[C@@H]2CCCN2C(=O)[C@@H](NC(=O)CCc2ccccc2)CCCNC1=O — main excretion period (C57BL/6J mice, urine; 1 mg/kg): ≤ 6 h
CCCCC1NC(=O)c2ccccc21 (racemic) — elimination half-life (Wistar rat, both sexes, plasma; intravenous, 10 mg/kg): 1.04 ± 0.0617 h
CC(C)(Sc1cc[n+]([O-])cc1-c1ccc(C#N)c2ccccc12)C(=O)OC1OC(C(=O)O)C(O)C(O)C1O (centres unmarked) — renal clearance decrease (urine; oral, 15 mg, severe renal impairment; reference: normal renal function): 88% and ~90%
C#CCOc1ccc(/C=C2\SC(=O)N(CC(=O)NCc3ccccc3)C2=O)cc1 — Kirkwood-Buff integral G2,3 (inverse Kirkwood-Buff integrals; binary solvent mixture; 298.15 K, mole fraction x1 0.25): -411 cm³/mol
C=C(c1cc(F)c(C(=O)O)c(F)c1)c1cc2c(cc1C)C(C)(C)CCC2(C)C — blood cholesterol (Sprague-Dawley rat, male; oral, 100 mg/kg, 24 h, sesame oil vehicle): 47 ± 8 mg/dL
CC(C)(Sc1ccncc1-c1ccc(C#N)c2ccccc12)C(=O)OC1OC(C(=O)O)C(O)C(O)C1O (centres unmarked) — renal clearance ratio (0-72 h) (adult men, urine; oral, 15 mg verinurad, mild renal impairment; reference: impaired over normal renal function): 81%
C[C@H](Oc1cc(-c2cnn(C3CCN(CC[18F])CC3)c2)cnc1N)c1c(Cl)ccc(F)c1Cl — tracer uptake (PET imaging; nude mouse, brain; iv, 5 min post injection): 6.6 ± 2.6 %ID/cc
CN(C)C(=O)c1ccc(COC(=O)N[c-]2cccc2)cc1.[Fe+2].c1cc[cH-]c1 — E1/2 (cyclic and differential pulse voltammetry; acetonitrile; 23 °C; reference: ferrocene/ferrocenium): -70 mV
CCCC[C@@H]1NC(=O)[C@@H](NC(=O)[C@H](CCC(=O)O)NC(=O)CNC(=O)CN2CCN(CC(=O)O)CCN(CC(=O)O)CCN(CC(=O)O)CC2)CCCCNC(=O)C[C@@H](C(N)=O)NC(=O)[C@H](C(C)C)NC(=O)[C@@H]2CCCN2C(=O)[C@H](CCCNC(=N)N)NC(=O)CNC(=O)[C@H](Cc2c[nH]c3ccccc23)NC(=O)[C@H](CCCNC(=N)N)NC(=O)[C@@H](Cc2ccccc2)NC(=O)[C@H](Cc2c[nH]cn2)NC(=O)[C@H](CCC(=O)O)NC1=O [gallium-67 labelled] — tissue uptake (C57 mice, B16/F10 lung metastases, bone; intravenous, 0.037 MBq/mouse, 4 h): 0.44 ± 0.09 %ID/g
COc1cc(CNC(=O)C[C@H](C)CCC=C(C)C)ccc1OCc1cn(-c2ccc(C#N)cc2)nn1 — growth percent (EKVX; SRB; 10 µM, 48 h): 81%
Cc1nc2cccc(OCC(C)(C)C(=O)NC(C)C)c2c(N)c1C(=O)O.O=P(O)(O)O — dose-normalised Cmax (male Sprague-Dawley rat, plasma; oral gavage, 30 mg/kg single dose): 1.29 ng/mL/mg/kg
Cn1c(=O)oc2ccc(-c3ccc(CC(C#N)NC(=O)C4CNCCCO4)c(F)c3)cc21 (centres unmarked) — acne incidence (human; oral, 40 mg once daily, TEAE, multiple ascending dose): 0%
C=C1C(=O)O[C@@H]2C[C@H](C)[C@@H]3C[C@H](O)[C@H](O)[C@@]3(C)C[C@H]12 — CC50 (propidium iodide flow cytometry; primary splenocytes, BALB/c mouse; 48 h, 10% fetal calf serum): 7.8 ± 0.2 µg/mL (≈ 29.3 µM)
O=C(NCCCN(CCCCN(CCCNC(=O)c1cccc(=O)n1[O-])C(=O)c1cccc(=O)n1[O-])C(=O)c1cccc(=O)n1[O-])c1cccc(=O)n1[O-].[89Zr+4] — intact complex (radio-TLC; PBS; 1 h, pH 7.4, 37 °C, together with: Mg^2+ 10-fold excess): 98.3 ± 2.5%
O=C(Cc1ccccc1)Nc1nc2ccccc2n1Cc1ccccc1 — fraction unbound (ultrafiltration; human plasma; 30 min, 37 °C): 36.6%
CC(C)c1cnc(-c2cc(Cl)ccc2F)cc1Nc1ccncc1C(=O)NC(CO)CO — patients with ALT increase (patients, phase I monotherapy; oral, dose not given, grade 5): 0%
Oc1c(Br)cc(Br)c2nc3cc(Cl)ccc3nc12 — hemolysis (human red blood cells; 200 µM, 1 h, pH 7.2, 37 °C): ≤ 1%
COCCOCCOCCOCCOCCOCCOCCOCCC(=O)NCCCc1cc2cc3nc(cc4[nH]c(cc5nc(c(OC)c1[nH]2)C(=O)C5(C)C)cc4CCc1ccc(C(=O)O)cc1)CC3(C)C — intersystem crossing yield (water with 5% DMF; room temperature): 0.47
CC(C)[C@H](NC(=O)[C@@H]1CCCN1C(=O)[C@H](CCCNC(=N)N)NC(=O)[C@H](CS)NC(=O)[C@H](Cc1c[nH]c2ccccc12)NC(=O)[C@H](CCCNC(=N)N)NC(=O)[C@@H](Cc1ccccc1)NC(=O)[C@H](Cc1c[nH]cn1)NC(=O)[C@H](CCC(=O)O)NC(=O)[C@H](CS)NC(=O)[C@H](CS)NC(=O)CNC(=O)[C@@H]1CC(=O)N[C@@H](CCCNC(=N)N)C(=O)NCC(=O)N[C@@H](CC(=O)O)C(=O)N[C@H](Cc2ccc(O)cc2)C(=O)N1)C(N)=O [technetium-99m labelled] — tumour to tissue ratio (C57 mouse, female, B16/F1 melanoma; intravenous, 0.037 MBq, 0.5 h; reference: tumour over muscle): 9.25
CC(C)CCCC(C)CCCC(C)CCO[C@@H]1O[C@H](CO)[C@@H](O[C@H]2O[C@H](CO)[C@@H](O)[C@H](O)[C@H]2O)[C@H](O)[C@H]1O (some centres unmarked) — characteristic time t* (dynamic surface tension; 0.0018 mmol/L): 753 s
CCCC[C@H](NC(=O)CNC(=O)CNC(=O)CN1CCN(CC(=O)O)CCN(CC(=O)O)CC1)C(=O)N[C@H]1CC(=O)NCCCC[C@@H](C(N)=O)NC(=O)[C@H](Cc2c[nH]c3ccccc23)NC(=O)[C@H](CCCNC(=N)N)NC(=O)[C@@H](Cc2ccccc2)NC(=O)[C@H](Cc2c[nH]cn2)NC1=O [copper-64 labelled] — uptake ratio (female C57 mouse, B16/F1 melanoma; intravenous, 0.037 MBq, 0.5 h; reference: tumour over kidneys): 1.35
COc1ccc(-c2csc(N/N=C(\C)c3cc(O)cc(O)c3)n2)cc1 — recovery (equilibrium dialysis; human plasma, male; 3 µM, 5 h, pH 7.4): 65.7% and 67.8% and 64.8% and 71.8%
CCn1c(=O)n(CCO)c(=O)c2c1nc(/C=C/c1ccc(OC)c(OC)c1)n2C — metabolite to parent ratio, Cmax (healthy human subjects, plasma; oral, 40 mg istradefylline, together with: rifampin 600 mg/day; reference: metabolite over parent): ~14%
[11CH3]c1ccc2nc(C3CCC3)n(-c3ccc4[nH]ncc4c3)c2n1 — absorbed dose (extrapolated from mouse; human male, stomach wall): 5.3 µSv/MBq
C=C(c1ncc(C(=O)O)cn1)c1cc2c(cc1C)C(C)(C)CCC2(C)C — blood triglycerides (Sprague-Dawley rat, male; oral, 100 mg/kg, 1 h, sesame oil vehicle): 71 ± 29.6 mg/dL
CC(=O)N([O-])CCCCCNC(=O)CCC(=O)N([O-])CCCCCNC(=O)CCC(=O)N([O-])CCCCCN.[89Zr+4] — intact complex (radio-iTLC; aqueous buffer; initial, pH 7.5, 37 °C, EDTA challenge, together with: 100-fold excess EDTA): 97.3 ± 0.6%
COc1cc(NC(C)=O)c2c(c1O)-c1c(OC)c(OC)cc3c1C(C2)N(C)CC3 (centres unmarked) — remaining compound (rat liver homogenate; 0.5 µg/mL, 40 d, -20 °C, long-term storage): 108 ± 3.8%
CC(C)(O)c1ncc([S@](N)(=O)=NC(=O)Nc2c3c(cc4c2CCC4)CCC3)s1 — renal clearance (healthy human, urine and plasma; oral, day 1, multiple ascending dose): 0.06 to 0.0833 mL/min
COc1cc(C)c(Cc2ccc(O)cc2)cc1[C@@H]1S[C@H](CO)[C@@H](O)[C@H](O)[C@H]1O — AUC(0-τ) (Japanese T2DM patients, plasma; 5 mg luseogliflozin, day 7, once daily): 259 ± 50.8 ng·h/mL
CN1CCC[C@]1(C)/C=C/S(=O)(=O)NC(=O)Nc1c2c(cc3c1CCC3)CCC2 — AUC(0-24) (human, plasma; oral, 100 mg twice daily, day 14, multiple ascending dose): 182000 ng·h/mL
Cc1ccc(OCC(=O)N(Cc2cccs2)c2ccn[nH]2)cc1 — dose-normalised AUC(0-last) (Sprague-Dawley rat, female, plasma; oral gavage, 30 mg/kg): 0.971 ng·h/mL/mg/kg
O=C1CCC(=O)N([O-])CCCCCNC(=O)CCC(=O)N([O-])CCCCCNC(=O)CCC(=O)N([O-])CCCCCN1.[Fe+3] — apparent log KFe (EDTA competition; pH 7.4, together with: EDTA 1.2 equiv): 32.4 ± 0.1
Cc1ccc(-c2ccc(-c3cc4sccc4o3)cn2)nc1 — fluorescence lifetime (TCSPC; DMF): 1.34 ns

For quick reference, copied from above:
CC(=O)N([O-])CCCCCNC(=O)CCC(=O)N([O-])CCCCCNC(=O)CCC(=O)N([O-])CCCCCN.[89Zr+4] — intact complex (radio-iTLC; aqueous buffer; initial, pH 7.5, 37 °C, EDTA challenge, together with: 100-fold excess EDTA): 97.3 ± 0.6%
Cc1ccc(-c2ccc(-c3cc4sccc4o3)cn2)nc1 — fluorescence lifetime (TCSPC; DMF): 1.34 ns
Cc1nc2cccc(OCC(C)(C)C(=O)NC(C)C)c2c(N)c1C(=O)O.O=P(O)(O)O — dose-normalised Cmax (male Sprague-Dawley rat, plasma; oral gavage, 30 mg/kg single dose): 1.29 ng/mL/mg/kg
CC(C)(C)NCC(SS(=O)(=O)O)c1ccccc1 (centres unmarked) — metabolic rate constant (glucuronidation; CD1 mouse, female, liver microsomes; 4 µM, pH 7.4, together with: UDPGA): 0.07 h⁻¹
CCCCC1NC(=O)c2ccccc21 (racemic) — elimination half-life (Wistar rat, both sexes, plasma; intravenous, 10 mg/kg): 1.04 ± 0.0617 h
